Earlier results, collected from citations in different studies.
Compare with care: the assays were run in different laboratories. ± marks the error that the study gave. Values after ≈ are worked out from the molar mass of the structure shown.
lasR: Transcriptional activator protein LasR (lasR, Pseudomonas aeruginosa, UniProt P25084)

| Structure (SMILES) | target or system | assay | system | setting | measurement | result |
| --- | --- | --- | --- | --- | --- | --- |
| CCCCCCC#Cc1cncc(-c2nnc(SCc3ccc([N+](=O)[O-])o3)n2C)c1 | Mycobacterium tuberculosis | MABA | Erdman wild type |  | IC50 | 600 nM |
| CC[C@H](C)[C@H](NC(=O)CNC(=O)[C@H](CC(=O)O)NC(=O)[C@H](CCCNC(=N)N)NC(=O)[C@@H](NC(=O)[C@H](CC(N)=O)NC(=O)[C@H](CCCNC(=N)N)NC(=O)CNC(=O)[C@@H](NC(=O)[C@H](CCCCN)NC(=O)[C@H](CCC(=O)O)NC(=O)[C@H](CC(C)C)NC(=O)[C@H](CCCCN)NC(=O)[C@H](CCCCN)NC(=O)[C@H](Cc1c[nH]c2ccccc12)NC(=O)[C@H](CO)NC(=O)[C@@H]1CCCN1)C(C)C)[C@@H](C)CC)C(=O)N[C@H](C(=O)N[C@@H](CCCCN)C(=O)N[C@@H](C)C(=O)NCC(=O)N1CCC[C@H]1C(=O)N[C@H](C(=O)N[C@H](C(=O)N[C@@H](CCC(=O)O)C(=O)N[C@H](C(=O)N[C@@H](CC(C)C)C(=O)NCC(=O)O)C(C)C)C(C)C)C(C)C)[C@@H](C)CC | Escherichia coli |  |  |  | MIC | 4 µM (≈ 12.2 µg/mL) |
| CC(=O)OC12COC1CC(O)C1(C)C(=O)C(OC(=O)N(C)C)C3=C(C)C(OC(=O)C(O)C(C=C(C)C)NC(=O)OC(C)(C)C)CC(O)(C(OC(=O)c4cccc(OC(F)(F)F)c4)C21)C3(C)C (stereo not drawn) | MCF7/PTX, paclitaxel-resistant | cell viability |  |  | IC50 | 31.4 ± 2.84 nM |
| CC(C)[C@H](Nc1nc(Cl)nc2c1ncn2[C@H]1[C@H](O)[C@H](O)[C@]2(CO)C[C@H]12)C1CC1 | Adenosine receptor A1 (ADORA1, Homo sapiens, UniProt P30542) | binding |  | added: [3H]R-PIA | Ki | 104 ± 6 nM |
| Cc1ccncc1CC(=O)Nc1cccc2c1CNCC2 | main protease (Mpro) |  |  | 50 µM | inhibition | 2.76% |
| OC[C@@]12C[C@@H]1[C@@H](n1cnc3c(N[C@H](C4CCC4)C4CC4)nc(Cl)nc31)[C@H](O)[C@@H]2O | Adenosine receptor A2a (ADORA2A, Homo sapiens, UniProt P29274) | binding |  | added: [3H]CGS21680 | Ki | 2690 nM |
| CN(C(=O)[C@H](Cc1ccccc1)NC(=O)Cc1c[nH]c2ccc(O)cc12)c1ccc(Cl)cc1 | HIV-1 capsid hexamer wild type |  |  |  | ΔTm | 6.6 °C |
| Nc1nc2sc(CCCCc3ccc(C(=O)N[C@@H](CCC(=O)O)C(=O)O)cc3)cc2c(=O)[nH]1 | CHO RT16 (human FRα) | cell growth |  | no added folic acid | IC50 | 9 nM |
| CCCCCCC#Cc1cncc(-c2nnc(SCc3ccc(Cl)cc3)n2C)c1 | Mycobacterium tuberculosis | MABA | Erdman wild type |  | IC50 | 5300 nM |
| O=C(CCCOc1ccc(Cl)cc1)N[C@H]1CCOC1=O | lasR | reporter gene, antagonist, rsaL-gfp reporter |  | 1 mM | inhibition | 25% |
| CC(=O)c1ccc2c(c1)c(=O)c(C(=O)NCCOCCO)cn2Cc1ccc(Br)cc1 | Trypanosoma brucei brucei | parasite growth |  |  | IC50 | 7140 nM |
| CC(C)[C@H](NC(=O)[C@H](CCCNC(=N)N)NC(=O)[C@H](Cc1ccccc1)NC(=O)[C@H](CS)NC(=O)[C@H](Cc1c[nH]c2ccccc12)NC(=O)[C@@H](N)CCCCN)C(=O)N[C@@H](CS)C(=O)N[C@@H](Cc1c[nH]c2ccccc12)C(=O)N[C@@H](CCCNC(=N)N)C(=O)N[C@@H](Cc1c[nH]c2ccccc12)C(=O)N[C@@H](Cc1ccccc1)C(=O)N[C@@H](CS)C(=O)N[C@@H](Cc1c[nH]c2ccccc12)C(=O)N[C@@H](CCCNC(=N)N)C(=O)N[C@@H](CCCCN)C(=O)N[C@@H](CS)C(=O)N[C@@H](CCCNC(=N)N)C(=O)O | Pseudomonas aeruginosa |  |  |  | MIC | 32 µM (≈ 78.4 µg/mL) |
| CCCCCCCCCC(=O)CC(=O)Nc1ccccc1 | lasR | reporter gene, antagonist, lasI-lacZ reporter |  | 10 µM | inhibition | 55% |
| CCN(CC)C(=O)[C@@H]1C=C2c3cccc4[nH]cc(c34)C[C@H]2N(C)C1 |  | head-twitch response | male C57BL/6J mouse |  | ED50 | 133 nmol/kg |
| NC[C@]1(CC(=O)O)CC[C@@H]([18F])CC1 | α2δ-1 | radioligand binding |  |  | IC50 | 24 nM |
| CC[C@H](C)[C@H](NC(=O)[C@H](CCCCN)NC(=O)[C@H](CCCNC(=N)N)NC(=O)[C@H](CCCCN)NC(=O)[C@H](CC(C)C)NC(=O)[C@H](Cc1ccccc1)NC(=O)[C@H](CCC(=O)O)NC(=O)[C@H](CCCCN)NC(=O)[C@@H](NC(=O)[C@@H](NC(=O)[C@H](CCC(=O)O)NC(=O)[C@H](C)NC(=O)CNC(=O)[C@@H](N)CCCNC(=N)N)[C@@H](C)O)C(C)C)C(=O)N[C@@H](CCCNC(=N)N)C(=O)N[C@@H](CCC(=O)O)C(=O)N[C@@H](CCCNC(=N)N)C(=O)NCC(=O)N[C@H](C(=O)N[C@@H](CCCCN)C(=O)N[C@@H](C)C(=O)N[C@H](C(=O)N[C@H](C(=O)N[C@@H](C)C(=O)N[C@@H](Cc1c[nH]c2ccccc12)C(=O)O)[C@@H](C)CC)C(C)C)[C@@H](C)O | Staphylococcus aureus |  |  |  | MIC | 64 µM (≈ 188 µg/mL) |
| CS(=O)(=O)c1ccc(N2CCNCC2)cc1 | main protease (Mpro) |  |  | 20 µM | inhibition | -2.52% |
| CC[C@H](C)[C@H](NC(=O)[C@H](CCCCN)NC(=O)[C@H](CCC(=O)O)NC(=O)[C@@H](NC(=O)[C@H](CCCNC(=N)N)NC(=O)[C@@H](NC(=O)CNC(=O)[C@H](CC(C)C)NC(=O)[C@H](CCCCN)NC(=O)[C@H](CCCNC(=N)N)NC(=O)[C@H](CCC(=O)O)NC(=O)[C@H](CC(C)C)NC(=O)CNC(=O)[C@@H](N)CCCNC(=N)N)C(C)C)[C@@H](C)CC)C(=O)NCC(=O)N[C@@H](CCCNC(=N)N)C(=O)N[C@@H](CCCNC(=N)N)C(=O)N[C@@H](CC(C)C)C(=O)NCC(=O)N[C@@H](CCCNC(=N)N)C(=O)N[C@H](C(=O)N[C@@H](CC(C)C)C(=O)NCC(=O)N[C@@H](CCC(=O)O)C(=O)N[C@@H](Cc1c[nH]c2ccccc12)C(=O)N[C@@H](CCC(=O)O)C(=O)N[C@H](C(=O)N[C@@H](CCC(=O)O)C(=O)O)C(C)C)[C@@H](C)CC | Pseudomonas aeruginosa |  |  |  | MIC | 4 µM (≈ 13.3 µg/mL) |
| CCCCCCCCCCCCCC/C=C/[C@H](CO)NC(=O)C(C)(C)C | acid ceramidase | fluorogenic | acid ceramidase-overexpressing cells |  | IC50 | ~15000 nM |
| S=c1oc(-c2ccccc2)nn1CN1CCN(Cc2ccccc2)CC1 | amyloid beta | aggregation, inhibitor |  | 10 µM | inhibition | 27.3% |
| CC[C@H](C)[C@H](NC(=O)[C@H](CCCCN)NC(=O)[C@H](CCC(N)=O)NC(=O)[C@H](C)NC(=O)[C@H](Cc1ccc(O)cc1)NC(=O)[C@H](CCC(=O)O)NC(=O)[C@H](CCCCN)NC(=O)[C@H](C)NC(=O)[C@H](CC(C)C)NC(=O)[C@H](CCCNC(=N)N)NC(=O)[C@H](CC(C)C)NC(=O)CNC(=O)[C@H](CCCCN)NC(=O)[C@H](C)NC(=O)[C@H](CCCNC(=N)N)NC(=O)[C@H](CC(C)C)NC(=O)[C@H](CCCCN)NC(=O)[C@H](CCC(N)=O)NC(=O)[C@H](C)NC(=O)[C@H](CC(C)C)NC(=O)[C@H](CCCCN)NC(=O)[C@H](CO)NC(=O)[C@H](CCCCN)NC(=O)[C@@H](N)Cc1c[nH]c2ccccc12)C(=O)N[C@@H](CC(C)C)C(=O)N[C@@H](CC(N)=O)C(=O)O | Escherichia coli |  |  |  | MIC | 2 µM (≈ 6.11 µg/mL) |

A few entries again:
| Structure (SMILES) | target or system | assay | system | setting | measurement | result |
| --- | --- | --- | --- | --- | --- | --- |
| CC(=O)c1ccc2c(c1)c(=O)c(C(=O)NCCOCCO)cn2Cc1ccc(Br)cc1 | Trypanosoma brucei brucei | parasite growth |  |  | IC50 | 7140 nM |
| CC(C)[C@H](NC(=O)[C@H](CCCNC(=N)N)NC(=O)[C@H](Cc1ccccc1)NC(=O)[C@H](CS)NC(=O)[C@H](Cc1c[nH]c2ccccc12)NC(=O)[C@@H](N)CCCCN)C(=O)N[C@@H](CS)C(=O)N[C@@H](Cc1c[nH]c2ccccc12)C(=O)N[C@@H](CCCNC(=N)N)C(=O)N[C@@H](Cc1c[nH]c2ccccc12)C(=O)N[C@@H](Cc1ccccc1)C(=O)N[C@@H](CS)C(=O)N[C@@H](Cc1c[nH]c2ccccc12)C(=O)N[C@@H](CCCNC(=N)N)C(=O)N[C@@H](CCCCN)C(=O)N[C@@H](CS)C(=O)N[C@@H](CCCNC(=N)N)C(=O)O | Pseudomonas aeruginosa |  |  |  | MIC | 32 µM (≈ 78.4 µg/mL) |
